Experimental data collected from several papers.
Numbered parts are unrelated; each lists some results of a single study. Changes are numbered by the printed parent chain.
Sequence of UniProt Q96PY6 (whole entry, looked up): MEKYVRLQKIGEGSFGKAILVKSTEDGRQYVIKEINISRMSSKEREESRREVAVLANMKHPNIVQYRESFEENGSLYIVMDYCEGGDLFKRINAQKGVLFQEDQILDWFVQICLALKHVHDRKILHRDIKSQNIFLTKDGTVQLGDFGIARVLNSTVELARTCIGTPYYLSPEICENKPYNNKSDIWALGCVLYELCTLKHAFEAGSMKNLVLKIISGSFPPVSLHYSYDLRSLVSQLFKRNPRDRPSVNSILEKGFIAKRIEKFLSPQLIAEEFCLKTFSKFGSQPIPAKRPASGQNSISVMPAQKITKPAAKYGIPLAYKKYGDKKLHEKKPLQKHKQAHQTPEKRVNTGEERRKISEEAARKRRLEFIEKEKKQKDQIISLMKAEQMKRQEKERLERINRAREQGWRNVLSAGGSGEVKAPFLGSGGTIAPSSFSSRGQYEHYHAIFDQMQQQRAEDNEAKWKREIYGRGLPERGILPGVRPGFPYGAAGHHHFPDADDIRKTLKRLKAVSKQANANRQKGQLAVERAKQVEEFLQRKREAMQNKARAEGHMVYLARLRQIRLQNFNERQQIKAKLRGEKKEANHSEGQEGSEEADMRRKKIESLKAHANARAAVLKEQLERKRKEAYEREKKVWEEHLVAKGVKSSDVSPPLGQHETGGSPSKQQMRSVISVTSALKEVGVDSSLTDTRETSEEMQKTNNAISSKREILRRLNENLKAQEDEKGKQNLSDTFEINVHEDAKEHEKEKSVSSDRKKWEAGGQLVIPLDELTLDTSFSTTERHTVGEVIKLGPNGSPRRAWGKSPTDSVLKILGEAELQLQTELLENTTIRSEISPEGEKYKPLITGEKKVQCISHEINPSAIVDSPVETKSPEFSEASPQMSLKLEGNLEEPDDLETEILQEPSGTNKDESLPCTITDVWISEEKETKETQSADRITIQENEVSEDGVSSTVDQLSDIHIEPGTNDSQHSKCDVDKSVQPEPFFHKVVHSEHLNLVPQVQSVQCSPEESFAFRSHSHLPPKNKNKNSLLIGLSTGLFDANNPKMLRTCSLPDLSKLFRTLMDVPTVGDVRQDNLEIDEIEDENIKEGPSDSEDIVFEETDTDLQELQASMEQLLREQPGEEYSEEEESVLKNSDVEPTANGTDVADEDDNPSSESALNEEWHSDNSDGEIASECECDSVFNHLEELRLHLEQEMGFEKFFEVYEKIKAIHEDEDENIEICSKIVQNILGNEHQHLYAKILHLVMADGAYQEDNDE
Sequence of UniProt Q8NEB9 (whole entry, looked up): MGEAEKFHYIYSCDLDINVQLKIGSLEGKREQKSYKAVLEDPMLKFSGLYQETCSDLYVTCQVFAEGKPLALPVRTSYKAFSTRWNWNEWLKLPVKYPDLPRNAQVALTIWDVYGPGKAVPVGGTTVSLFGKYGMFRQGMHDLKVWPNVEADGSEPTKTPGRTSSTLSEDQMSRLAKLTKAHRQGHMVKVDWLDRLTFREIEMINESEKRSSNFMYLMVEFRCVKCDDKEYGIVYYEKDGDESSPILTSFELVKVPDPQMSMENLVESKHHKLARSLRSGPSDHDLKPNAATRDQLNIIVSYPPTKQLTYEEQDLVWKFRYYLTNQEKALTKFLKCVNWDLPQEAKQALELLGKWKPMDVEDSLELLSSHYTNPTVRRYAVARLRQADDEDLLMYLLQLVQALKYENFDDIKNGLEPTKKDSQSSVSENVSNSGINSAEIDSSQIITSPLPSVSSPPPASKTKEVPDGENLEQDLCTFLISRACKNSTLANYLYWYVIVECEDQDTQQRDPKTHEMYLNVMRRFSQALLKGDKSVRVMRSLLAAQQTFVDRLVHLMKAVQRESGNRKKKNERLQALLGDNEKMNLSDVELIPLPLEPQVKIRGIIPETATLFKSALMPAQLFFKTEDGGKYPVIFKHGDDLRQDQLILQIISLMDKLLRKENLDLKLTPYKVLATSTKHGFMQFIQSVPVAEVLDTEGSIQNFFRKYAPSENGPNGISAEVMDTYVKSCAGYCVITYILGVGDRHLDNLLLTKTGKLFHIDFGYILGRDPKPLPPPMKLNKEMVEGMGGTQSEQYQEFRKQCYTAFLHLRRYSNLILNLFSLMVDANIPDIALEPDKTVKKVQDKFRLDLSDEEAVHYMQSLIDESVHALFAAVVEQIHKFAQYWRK
Sequence of UniProt P36896 (whole entry, looked up): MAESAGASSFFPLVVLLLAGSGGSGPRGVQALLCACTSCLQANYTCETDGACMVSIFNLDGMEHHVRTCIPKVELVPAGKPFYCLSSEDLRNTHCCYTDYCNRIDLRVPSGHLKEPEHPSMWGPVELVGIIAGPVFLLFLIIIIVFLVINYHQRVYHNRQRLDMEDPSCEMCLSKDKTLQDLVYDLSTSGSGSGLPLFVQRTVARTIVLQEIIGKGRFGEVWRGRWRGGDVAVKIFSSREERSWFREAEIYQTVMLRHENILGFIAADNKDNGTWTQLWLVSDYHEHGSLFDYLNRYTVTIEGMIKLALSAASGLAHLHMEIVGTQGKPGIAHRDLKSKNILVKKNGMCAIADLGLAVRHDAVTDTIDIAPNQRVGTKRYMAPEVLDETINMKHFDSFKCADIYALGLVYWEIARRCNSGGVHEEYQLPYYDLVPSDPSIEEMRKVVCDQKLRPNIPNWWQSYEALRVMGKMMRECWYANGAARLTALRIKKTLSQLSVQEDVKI
Sequence of UniProt Q86YV6 (whole entry, looked up): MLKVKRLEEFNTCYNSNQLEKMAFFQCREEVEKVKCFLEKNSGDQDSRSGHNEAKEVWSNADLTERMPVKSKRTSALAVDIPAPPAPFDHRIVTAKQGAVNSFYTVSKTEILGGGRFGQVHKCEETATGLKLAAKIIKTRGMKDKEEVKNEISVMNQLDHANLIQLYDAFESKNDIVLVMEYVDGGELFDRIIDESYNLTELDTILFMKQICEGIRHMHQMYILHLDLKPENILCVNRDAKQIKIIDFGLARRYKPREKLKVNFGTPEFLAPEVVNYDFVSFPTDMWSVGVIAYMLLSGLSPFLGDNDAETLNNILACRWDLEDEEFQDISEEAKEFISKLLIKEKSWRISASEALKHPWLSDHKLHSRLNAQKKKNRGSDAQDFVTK
Sequence of UniProt Q5VT25 (whole entry, looked up): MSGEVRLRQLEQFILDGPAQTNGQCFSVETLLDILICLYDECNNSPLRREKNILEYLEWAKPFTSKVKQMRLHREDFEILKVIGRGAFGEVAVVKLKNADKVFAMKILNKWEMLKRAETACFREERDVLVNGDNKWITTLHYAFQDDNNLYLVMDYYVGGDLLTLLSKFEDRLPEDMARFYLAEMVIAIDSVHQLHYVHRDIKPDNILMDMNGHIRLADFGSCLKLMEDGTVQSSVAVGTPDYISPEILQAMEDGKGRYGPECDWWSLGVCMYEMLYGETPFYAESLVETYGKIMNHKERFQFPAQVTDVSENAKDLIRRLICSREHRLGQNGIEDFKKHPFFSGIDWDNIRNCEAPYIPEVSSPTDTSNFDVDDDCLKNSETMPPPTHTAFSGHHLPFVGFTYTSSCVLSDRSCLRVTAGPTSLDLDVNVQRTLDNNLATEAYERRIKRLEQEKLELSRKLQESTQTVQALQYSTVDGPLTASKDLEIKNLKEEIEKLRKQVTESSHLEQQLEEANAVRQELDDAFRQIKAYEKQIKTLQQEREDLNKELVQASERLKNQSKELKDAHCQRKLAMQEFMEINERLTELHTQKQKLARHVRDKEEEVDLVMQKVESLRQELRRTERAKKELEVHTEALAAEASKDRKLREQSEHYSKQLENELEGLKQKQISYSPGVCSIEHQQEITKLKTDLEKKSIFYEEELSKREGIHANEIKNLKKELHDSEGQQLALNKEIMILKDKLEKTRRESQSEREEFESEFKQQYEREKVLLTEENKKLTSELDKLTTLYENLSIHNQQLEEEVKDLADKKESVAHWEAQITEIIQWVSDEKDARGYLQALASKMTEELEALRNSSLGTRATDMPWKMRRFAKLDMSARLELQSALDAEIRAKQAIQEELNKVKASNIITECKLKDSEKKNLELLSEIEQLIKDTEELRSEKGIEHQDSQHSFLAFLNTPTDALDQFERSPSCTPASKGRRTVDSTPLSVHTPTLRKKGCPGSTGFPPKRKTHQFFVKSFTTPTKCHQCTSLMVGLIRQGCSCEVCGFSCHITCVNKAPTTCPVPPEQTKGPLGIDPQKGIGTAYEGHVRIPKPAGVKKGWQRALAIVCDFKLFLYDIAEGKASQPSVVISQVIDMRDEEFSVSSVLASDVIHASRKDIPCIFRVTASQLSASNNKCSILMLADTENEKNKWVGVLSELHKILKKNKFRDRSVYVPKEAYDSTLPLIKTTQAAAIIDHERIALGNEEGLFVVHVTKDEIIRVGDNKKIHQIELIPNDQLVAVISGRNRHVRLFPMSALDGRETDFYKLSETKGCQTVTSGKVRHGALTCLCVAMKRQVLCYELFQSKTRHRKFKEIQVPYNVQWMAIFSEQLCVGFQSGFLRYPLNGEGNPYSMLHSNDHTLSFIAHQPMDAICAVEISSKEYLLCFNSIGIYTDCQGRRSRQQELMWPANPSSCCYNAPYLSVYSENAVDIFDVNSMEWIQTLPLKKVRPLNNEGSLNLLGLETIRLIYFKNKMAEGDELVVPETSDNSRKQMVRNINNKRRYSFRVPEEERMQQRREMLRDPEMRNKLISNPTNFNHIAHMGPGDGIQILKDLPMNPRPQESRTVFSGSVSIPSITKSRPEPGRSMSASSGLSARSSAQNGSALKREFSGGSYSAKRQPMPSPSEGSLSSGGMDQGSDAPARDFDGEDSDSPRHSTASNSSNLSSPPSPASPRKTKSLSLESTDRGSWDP
Sequence of UniProt P11802 (whole entry, looked up): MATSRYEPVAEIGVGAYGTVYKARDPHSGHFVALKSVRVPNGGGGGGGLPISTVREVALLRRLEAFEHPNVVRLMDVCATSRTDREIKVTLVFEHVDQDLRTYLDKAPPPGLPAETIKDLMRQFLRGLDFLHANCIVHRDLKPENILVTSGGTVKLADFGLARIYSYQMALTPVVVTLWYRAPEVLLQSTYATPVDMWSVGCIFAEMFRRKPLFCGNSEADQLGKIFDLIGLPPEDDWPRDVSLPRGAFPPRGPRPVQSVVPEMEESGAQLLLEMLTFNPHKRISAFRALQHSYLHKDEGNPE

Series 1
Target: CCND2, cyclin fold, Cln2 fusion (human)
Technique: yeast growth competition, sequencing
Matrix: yeast
Notes: weak parent motif
Baseline: not given
Direction: higher = stronger binding
Endpoint: normalised enrichment score
Starting sequence: BRCA2 docking peptide (human); PSIKRNLLNEFDR; partner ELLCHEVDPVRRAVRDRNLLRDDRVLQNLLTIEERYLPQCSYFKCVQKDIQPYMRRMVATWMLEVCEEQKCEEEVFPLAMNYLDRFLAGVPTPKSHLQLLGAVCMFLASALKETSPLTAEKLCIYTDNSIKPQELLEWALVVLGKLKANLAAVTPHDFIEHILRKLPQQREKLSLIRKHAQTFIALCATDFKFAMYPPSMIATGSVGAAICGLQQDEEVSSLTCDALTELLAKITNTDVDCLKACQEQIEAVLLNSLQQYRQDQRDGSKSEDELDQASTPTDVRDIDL
N6F: 0.318
L7Y: -0.107
L8R: -0.224
R13Q: 0.0437
S2L: 0.953
D12L: 0.0611
D12V: 0.214
I3P: 0.415

Series 2
Compound: OCC(O)CCON=C1C(c2c(O)[nH]c3ccccc23)=Nc2ccccc21 (centres unmarked)
Observed: enzyme activity
Mode: inhibitor
Concentration: 0.5 µM
Baseline: control
Endpoint: remaining activity
Serine/threonine-protein kinase Nek6 (NEK6, Homo sapiens, UniProt Q9HC98): 96.3%
Ephrin type-A receptor 3 (EPHA3, Homo sapiens, UniProt P29320): 69%
Serine/threonine-protein kinase TAO2 (TAOK2, Homo sapiens, UniProt Q9UL54): 83.4%
Mitogen-activated protein kinase 3 (MAPK3, Homo sapiens, UniProt P27361): 98.7%
Tyrosine-protein kinase FRK (FRK, Homo sapiens, UniProt P42685): 49.7%
Angiopoietin-1 receptor (TEK, Homo sapiens, UniProt Q02763): 101%
Activin receptor type-1B (ACVR1B, Homo sapiens, UniProt P36896): 110%
Serine/threonine-protein kinase Nek1 (NEK1, Homo sapiens, UniProt Q96PY6): 92.9%
Ribosomal protein S6 kinase alpha-2 (RPS6KA2, Homo sapiens, UniProt Q15349): 12.1%
Tyrosine-protein kinase JAK3 (JAK3, Homo sapiens, UniProt P52333): 16.9%
Tyrosine-protein kinase Lck (LCK, Homo sapiens, UniProt P06239): 29.7%

Series 3
SMILES: O=C(N1CCS(=O)(=O)CC1)N1C[C@H](c2ccc(OC(F)(F)F)cc2)C[C@H](c2nc(C3CC3)no2)C1
Observed: cell-free assay
Technique: competition with immobilised ligand
Concentration: 1 µM
Endpoint: remaining binding
Tyrosine-protein kinase ABL1, non-phosphorylated (ABL1, Homo sapiens, UniProt P00519, H396P): 100%
Phosphatidylinositol 3-kinase catalytic subunit type 3 (PIK3C3, Homo sapiens, UniProt Q8NEB9): 100%
Serine/threonine-protein kinase RIO2 (RIOK2, Homo sapiens, UniProt Q9BVS4): 100%
Tyrosine-protein kinase ITK/TSK (ITK, Homo sapiens, UniProt Q08881): 100%
Serine/threonine-protein kinase MRCK alpha (CDC42BPA, Homo sapiens, UniProt Q5VT25): 100%
Serine/threonine-protein kinase B-raf (BRAF, Homo sapiens, UniProt P15056, V600E): 100%
Cyclin-dependent kinase 4, with cyclin D3 (CDK4, Homo sapiens, UniProt P11802): 88%
Myosin light chain kinase family member 4 (MYLK4, Homo sapiens, UniProt Q86YV6): 100%

Series 4
Target: PABPC1L2, full length, GST fusion (mouse, UniProt A0ABA7IW68)
Technique: RNAcompete
Molecule type: RNA
Matrix: in vitro
Concentration: 20 nM
Notes: 7-mer, probes averaged, single round
Baseline: mean of 7-mers
Direction: higher = stronger binding
Endpoint: 7-mer Z-score
Target sequence (chain): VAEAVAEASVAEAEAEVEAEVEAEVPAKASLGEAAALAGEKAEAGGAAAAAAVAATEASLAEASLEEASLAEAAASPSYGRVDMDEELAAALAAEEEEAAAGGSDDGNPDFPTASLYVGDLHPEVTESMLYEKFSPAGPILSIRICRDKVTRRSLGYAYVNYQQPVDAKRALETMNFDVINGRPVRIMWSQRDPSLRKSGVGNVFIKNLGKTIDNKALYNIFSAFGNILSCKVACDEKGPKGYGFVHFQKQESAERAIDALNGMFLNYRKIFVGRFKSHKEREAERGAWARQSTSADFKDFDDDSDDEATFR
UCUGCGC: -0.333
UAUUCGA: -0.132
UGACCUA: -0.121
GAGGGGC: 0.242
UAGACAC: -0.0989
CUUAGUA: -0.151
UCUCGCC: -0.456
CACUAAA: 1.17

A few entries again (series 4):
UCUGCGC: -0.333
UAGACAC: -0.0989
UCUCGCC: -0.456
CUUAGUA: -0.151
CACUAAA: 1.17
